# Measured values of several laboratories.
# Parts stem from different laboratories: compare values within a part only.

# Block 1
# Target: Prothrombin, mature alpha-thrombin (F2, Homo sapiens, UniProt P00734)
# Method: aptamer microarray, sandwich
# Form: DNA with 2'F-ANA
# Sample: in vitro
# Tested at: 200 nM
# Notes: whole 15-mer aptamer, many near background
# With: Cy3 exosite-II aptamer, 400 nM
# Direction: higher = stronger binding
# Strand: GGTTGGTGTGGTTGG
Modification,mean fluorescence intensity [a.u.]
2'F-ANA at 2 3 7 8 9 11 12 13,828
2'F-ANA at 2 3 13,801
2'F-ANA at 3 4 5 6 11 12 13 14 15,47.8
2'F-ANA at 3 5 6 8 14,57.3
2'F-ANA at 1 2 3 5 9 12,342
2'F-ANA at 1 4 7 8 9 11 13 14 15,136
2'F-ANA at 2 3 4 10 13 15,217
2'F-ANA at 1 3 6 7 8 9 11 12 13 14,118
2'F-ANA at 1 3 4 5 10 11 12 13 14 15,46.6
2'F-ANA at 2 3 4 5 6 7 9 10 11 12 13 15,65.3
2'F-ANA at 1 2 3 5 6 7 9 13 14,50.3
2'F-ANA at 1 3 5 12 15,129
2'F-ANA at 1 3 4 7 10 11 15,60.2
2'F-ANA at 1 4 6 10 11 13 15,47.2
2'F-ANA at 5 7 10 11 12 13,46.4

# Block 2
# Target: Histone acetyltransferase KAT6A, winged helix 1, GST fusion (KAT6A, Homo sapiens, UniProt Q92794, residues 1-85)
# Method: protein binding microarray
# Form: double-stranded DNA, one strand shown
# Sample: in vitro
# Tested at: not given
# Notes: 8-mer, flanks averaged, mean of 2 arrays, mostly near background
# Baseline: not given
# Direction: higher = stronger binding
# Target sequence (chain): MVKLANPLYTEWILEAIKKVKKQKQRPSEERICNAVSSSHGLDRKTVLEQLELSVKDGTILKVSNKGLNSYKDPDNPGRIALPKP
Strand,E-score
GTTAAAAC,0.0193
ACCTATGG,-0.103
AATTTTTG,-0.266
ACTGATCA,-0.117
ATTGAGGA,-0.0373
AGTGGATC,-0.177
ACGTGCCG,0.286
CGCGCAAG,0.352
AAGGAGCG,0.186
AGTGCCTG,-0.14
CAAAGAAG,-0.25
AATCTCGC,-0.00893
ATGGTGTC,-0.174
CATAAACG,0.00281
GCCATTAA,-0.139
CGGGGCAA,0.0732

# Block 3
# Target: Interferon regulatory factor 5, full length, phosphomimetic (IRF5, Homo sapiens, UniProt Q13568-2, residues 1-514, S451D/S453D/S456D/S462D)
# Method: protein-binding microarray
# Form: double-stranded DNA, one strand shown
# Sample: in vitro
# Tested at: 940 nM top
# Notes: 60-bp whole probe
# With: salmon DNA 0.4 mg/ml
# Baseline: random background probes
# Direction: higher = stronger binding
# Shared flanks, not repeated: GCCTAGCAC … GTCTTGATTCGCTTGACGCTGCTG
Strand,fitted relative affinity
CTAGGACTGGGGTATCGGTTAGTGCTA,2.58 z-score
TCACCATTTTTTTTCACACTGTGCTAG,1.67 z-score
GACGAACTGGGGTCTCGAGACGTGCTA,0.5 z-score
TCATCTCTCCATGTGTTACTGTGCTAG,1.04 z-score
CAAGTTTCTCCTTTCCAAATGTGCTAG,4.28 z-score
TCCATGACCTACCCTGCGTTGTGCTAG,-0.209 z-score
TCATCTGTCCCTCTGTGACTGTGCTAG,0.264 z-score
TCACTGCTACCCTCTGAAACTGTGCTA,0.671 z-score
CAAACACTAGTTTTCATTTTGTGCTAG,0.409 z-score
TTAGGTATCCTACTGCCTTAGTGCTAG,-0.0608 z-score
AGGCTCATACATCTGGGTGGGTGCTAG,-0.0715 z-score
TTAGGTTTGCTTTTCCTTTAGTGCTAG,0.132 z-score
CCGTAGCTTCCTTTCGCCGCGTGCTAG,0.442 z-score
CAAGTTTCTCCTTTGTAAATGTGCTAG,3.79 z-score
CACGGTATCGGGACTGGGGACGTGCTA,2.89 z-score
TTAGGTTTCGACACTGAGTTAGTGCTA,7.64 z-score
TCCAGGGCGGTGGGTGGCCCGTGCTAG,-0.603 z-score

# Block 4
# Target: Ras GTPase-activating protein-binding protein 1, RRM domain (G3BP1, Homo sapiens, UniProt Q13283)
# Sequence of UniProt Q13283 (whole entry, looked up): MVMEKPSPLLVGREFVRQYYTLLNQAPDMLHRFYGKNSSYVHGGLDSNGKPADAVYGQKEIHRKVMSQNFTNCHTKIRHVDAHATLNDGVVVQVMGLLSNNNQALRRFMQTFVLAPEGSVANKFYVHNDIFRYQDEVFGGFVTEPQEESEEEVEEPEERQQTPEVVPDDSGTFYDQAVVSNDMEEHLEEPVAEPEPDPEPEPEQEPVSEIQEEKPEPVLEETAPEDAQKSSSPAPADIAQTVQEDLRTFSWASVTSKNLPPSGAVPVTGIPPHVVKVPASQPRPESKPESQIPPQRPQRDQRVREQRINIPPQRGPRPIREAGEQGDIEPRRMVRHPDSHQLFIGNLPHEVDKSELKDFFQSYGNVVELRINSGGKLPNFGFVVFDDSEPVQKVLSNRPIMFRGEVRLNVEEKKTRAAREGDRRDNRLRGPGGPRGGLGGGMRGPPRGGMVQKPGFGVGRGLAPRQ
# Method: RNA Bind-n-Seq
# Form: RNA
# Sample: in vitro
# Tested at: 1 µM
# Notes: whole 134-nt RNA, ends assumed
# With: 150 mM KCl
# Baseline: input library
# Direction: higher = stronger binding
# Shared flanks, not repeated: GGGAGUUCUACAGUCCGACGAUC … UGGAAUUCUCGGGUGUCAAGG
Strand,log2 enrichment
CAAGUCCUGUGCUACACAUCGUAUGUACCGAAUCGGAAAAAGGUGGUUUUUUUGGAAAGUAUUAUGUUACGCCGUUCGGAUCUGCACUUC,-0.25
AGUCCUGUGCUACACAUCGUAUGUACCGAAUCGGGAAAAGGGAAAAGGGAAAAGGGGAAAGUAUUAUGUUACGCCGUUCGGAUCUGCACU,0.893
UCCUCAAGUCCUGUGCUACACAUCGUAUGUACCGAAUCGGGGUGGGUGGUGGAAAGUAUUAUGUUACGCCGUUCGGAUCUGCACUUCCAG,-0.0777
UGGCCCUGGUGGCAUGCGGGGAGGAAGAGGUGGCCUCAUGGAUCGUGGUGGUCCCGGUGGAAUGUUCAGAGGUGGCCGUGGUGGAGACUG,1.37
GUCCUGUGCUACACAUCGUAUGUACCGAAUCGGGGUUUUUGGGGAAAAAGGGGAGGGGAAAGUAUUAUGUUACGCCGUUCGGAUCUGCAC,0.942
UCCUGUGCUACACAUCGUAUGUACCGAAUCGGGAAAAAGGGUUUUUGGGUUUUUUUGGGAAAGUAUUAUGUUACGCCGUUCGGAUCUGCA,-0.0851
AAGUCCUGUGCUACACAUCGUAUGUACCGAAUCGGGCCCGGGGCCCGGGGCCCGGGGAAAGUAUUAUGUUACGCCGUUCGGAUCUGCACU,-1.11

# Block 5
# Target: RING finger protein unkempt homolog, zinc fingers 1-6, GST-SBP tag (UNK, Homo sapiens, UniProt Q9C0B0, residues 30-357)
# Method: RNA Bind-n-Seq
# Form: RNA
# Sample: in vitro
# Tested at: not given
# Notes: RNA with constant flanks, human-mouse chimeric sites, ends assumed
# Baseline: input RNA pool
# Direction: higher = stronger binding
# Shared flanks, not repeated: GGGAGUUCUACAGUCCGACGAUC … CAACAGAGGAUUGAGCAUCA
# Construct (chain): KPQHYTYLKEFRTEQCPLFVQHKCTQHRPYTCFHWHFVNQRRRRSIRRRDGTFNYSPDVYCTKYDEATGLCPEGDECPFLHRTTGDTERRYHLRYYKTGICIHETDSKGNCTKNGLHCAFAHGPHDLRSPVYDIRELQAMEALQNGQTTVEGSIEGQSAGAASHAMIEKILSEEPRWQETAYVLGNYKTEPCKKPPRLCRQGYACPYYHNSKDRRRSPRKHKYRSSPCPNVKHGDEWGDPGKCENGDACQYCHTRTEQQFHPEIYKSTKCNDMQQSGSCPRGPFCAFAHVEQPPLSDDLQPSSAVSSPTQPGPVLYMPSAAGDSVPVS
Strand,bound/input enrichment
UUAAUCCCCUUUACUGCUCCCCCACUUCUCAUGGUAAUAACAAAGUCUUAUAUCCCCGUCCUAGCUUUUACUCAGAUGGCUUAUGGAGCCAGUUUCCUAGCUUUCUUGGGAGGGAUCAGA,0.567 ratio
AGAGAUAAGACAUCCAGGAACAUGCGAGGCUCCCGGAUGAAUGGGUUUCCAAGUCCCACUCACAGCGCCCACUGUAGCUUCUACAGAACCAGAACCUUGCAGGCACUGAGUAAUGAGAAG,0.0613 ratio
ACCUCCCCCUCCCGCCUCACCCCACCCCCGCUUUUUGAAAGUGUGUUGGCGUUUCUUUUCCUUCCCCAUACAAAGUGAUUACAGUUUCCCCCGCAAGUGGGGCUUGAAGGGCUUGACGGA,0.626 ratio
ACUCAGAGAUUAUAUUCCCAAAGUGCUGGGAGUAAAGGUGUGGCCACCACACCUAACUUGAUGGAUAUAUAUUUUUUCUCUUUUAUGUCUUCCUGUUCGUCCAGGGAAGAAAGAUUUGUU,0.593 ratio
GGACAUCUGUCAAAUUGUUAUGUUCCUGUGAAACAAGUGAGCACUUUGAUACACUUCAUCUGCUUGUACAUCUGUAUGAUAGAGAAAUGUAAAUAUGAAUAUAUUUACAAUGUGUCACUU,0.0744 ratio
GUGACUGGUGUUAAGAUUUCCCCUCAGAAAAGAACUGCAGUAGUCACAAUAAUCCCUUCUGUGGUGAGUGCCAGUCAGAUUGUGGAGCUGGUCCCAGACCUCAGUUUAGACAUGGGAACU,0.213 ratio
UACAUUUUAUUGUUGAGUUUCAUUUUCAUAUAUUCUUGUAGUGUCUGCUUGCCUGUGACUUCUGGUAAAAUAAAAUAAGCCUUUGAAAAUAUUUUAGCAUGGUAUUUUUCUAAAAAUAAA,1.12 ratio
CUGUGACUGAUGGCAGCUACCUGAGUGUUCAGAUGGGUUGACUCCCUCUCCUUGCCUGAACCCCCCCCCACUGCCCCCCCAUCCCCCAGUGUCGGCUGAGAUGUUGCCUCUGCACGGUUC,0.44 ratio

# Block 6
# Target: TAR DNA-binding protein 43, full length, His tag (TARDBP, Homo sapiens, UniProt Q13148, residues 1-414)
# Method: RNA Bind-n-Seq
# Form: RNA
# Sample: in vitro
# Tested at: 20 nM
# Notes: 6-mer, flanks averaged, single round
# With: 150 mM LiCl
# Baseline: input library
# Direction: higher = stronger binding
Strand,6-mer enrichment (R)
UGAUAC,0.886
CCUCUC,0.971
CCAACC,0.878
UGCUCG,0.878
CUACAG,0.819
GUAGCU,0.972
GGCACU,0.932
GAUGUU,1.11
GGAUAA,0.927
CAGGAG,0.974
ACAGUG,0.99
UCAGGA,0.891
GGUAAG,1.1
AUUGGU,1.08
GACGGG,1.11
AAUGGC,0.944
CUCGAC,0.799

# Excerpt of the above (block 5):
Strand,bound/input enrichment
UUAAUCCCCUUUACUGCUCCCCCACUUCUCAUGGUAAUAACAAAGUCUUAUAUCCCCGUCCUAGCUUUUACUCAGAUGGCUUAUGGAGCCAGUUUCCUAGCUUUCUUGGGAGGGAUCAGA,0.567 ratio
AGAGAUAAGACAUCCAGGAACAUGCGAGGCUCCCGGAUGAAUGGGUUUCCAAGUCCCACUCACAGCGCCCACUGUAGCUUCUACAGAACCAGAACCUUGCAGGCACUGAGUAAUGAGAAG,0.0613 ratio
GUGACUGGUGUUAAGAUUUCCCCUCAGAAAAGAACUGCAGUAGUCACAAUAAUCCCUUCUGUGGUGAGUGCCAGUCAGAUUGUGGAGCUGGUCCCAGACCUCAGUUUAGACAUGGGAACU,0.213 ratio
CUGUGACUGAUGGCAGCUACCUGAGUGUUCAGAUGGGUUGACUCCCUCUCCUUGCCUGAACCCCCCCCCACUGCCCCCCCAUCCCCCAGUGUCGGCUGAGAUGUUGCCUCUGCACGGUUC,0.44 ratio
GGACAUCUGUCAAAUUGUUAUGUUCCUGUGAAACAAGUGAGCACUUUGAUACACUUCAUCUGCUUGUACAUCUGUAUGAUAGAGAAAUGUAAAUAUGAAUAUAUUUACAAUGUGUCACUU,0.0744 ratio
ACCUCCCCCUCCCGCCUCACCCCACCCCCGCUUUUUGAAAGUGUGUUGGCGUUUCUUUUCCUUCCCCAUACAAAGUGAUUACAGUUUCCCCCGCAAGUGGGGCUUGAAGGGCUUGACGGA,0.626 ratio
